Measured values collected from several papers.
Each numbered part is a random draw from the data of one study; scales do not carry over between parts. Changes are numbered by the printed parent chain.

Block 1
Target: RNA binding protein fox-1 homolog 2, RRM domain, GST-SBP tag (RBFOX2, Homo sapiens, UniProt O43251-10, residues 100-194)
Technique: RNA Bind-n-Seq
Molecule type: RNA
Medium: in vitro
Tested at: 365 nM
Setting: natural RNA segment, single round, ends assumed
Baseline: no-protein control
Direction: higher = stronger binding
Construct (chain): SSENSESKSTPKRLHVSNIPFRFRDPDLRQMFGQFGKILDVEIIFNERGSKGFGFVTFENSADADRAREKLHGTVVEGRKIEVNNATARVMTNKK
Sequence | RBNS enrichment (R)
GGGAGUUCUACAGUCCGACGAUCAAAAAAAAGAAAAAGCAAGAGUUUUUAUUAUGAUGUAAUACCGGUAGAAUAUUGAAUAUUUAAAAGGCACACUACAUCUGAUAGUCAAUGUAAAUAUUUUCUUUCCAAGUUGGAAUUCUCGGGUGCCAA | 0.64
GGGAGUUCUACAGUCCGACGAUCUUUCGGUUUUUGGAAAGGGAUCCAUCUCCAGGCAGCCCACCCUGGUGGGGCUUGUUUCCUGAAACCAUGAUGUACUUUUUCAUACAUGAGUCUGUCCAGAGUGCUUGCUAUGGAAUUCUCGGGUGCCAA | 0.324
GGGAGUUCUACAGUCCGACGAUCGAUAGAAACUGGGACGGAUUCAAGUCACAUGCACGCGGAUAGCAGUAAGCCACACACCUGCCACUUAGCCAGAAUGCCCAGGAUCGCGUUGGUCACUGUUAUUUGCCUACUGGAAUUCUCGGGUGCCAA | 3.24
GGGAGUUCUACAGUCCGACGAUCGUUACCAGGAGAAAUGUGUGACACCUAUAUUAUAAUGAAAACAAUCUCAUUACUUAUAGUUUAUCUAUAUUAAACAAAUUUAAUUGCAUUUUAAAGCAUUCUUUGAUACUUGGAAUUCUCGGGUGCCAA | 0.916
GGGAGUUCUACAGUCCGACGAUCAUAUCCUGUGGUGAUUAUGUAUAAUGAAACAGUCUUAUUUUGUGCUCUUUGGUUUCUUAAAAGGAAAGCUUGUUUUCUUUCCUUUAUCAUUACAGAGGUAUGUCUUUGGUUGGAAUUCUCGGGUGCCAA | 0.827
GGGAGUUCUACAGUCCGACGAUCUGAGACAUGACUUCAAGACUCGAGACUUGGUAGAAUCCUUUUACUUGGCCAUCUGAGUAGAAAUAGGAGUAGCUUUAAGAAAAAGGCAGAUUCUCUAAAGGAAUUUGGAGUGGAAUUCUCGGGUGCCAA | 0.622
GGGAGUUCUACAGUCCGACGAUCUCAGGAUUGGGAAUUGUCUUUAGUGCCGGCUGUGGAGCAAAAGGCAGCUCACCCCUGGGCAGGCGGUCCCCAUCCCCACCAGCUCGUUUUUCAGCACCCCCACCCACCUCUGGAAUUCUCGGGUGCCAA | 1.59
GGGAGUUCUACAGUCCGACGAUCGUAGGAUCACACACACAGGUGCAAUCUUGACCACACUUACCUGCAAGAGGAGUAACCAGAGGACACACUUCCUUCCUUCUUUGGUGUCUGAGGAGUGUGAACUGUUGGGGUGGAAUUCUCGGGUGCCAA | 0.483
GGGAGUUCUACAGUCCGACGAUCUUGUUUUCCUCUCACUAUUUAAAGUUGACUAGAAGAGAAGAGUUGUGUGUUGAGGCUAAGUUGGUGGGUUGGGUUGGCUUCUUAACAUCAAGAAACUGAAUGGAGCUCCAUGGAAUUCUCGGGUGCCAA | 0.609
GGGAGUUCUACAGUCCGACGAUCUGCCCACCUCUUCUGCGUGCCCCUCUUCUGUCUCAUAGUUGUGUUAAGCUUGCGUAGAAUUGCAGGUCUCUGUACGGGCCAGUUUCUCUGCCUUCUUCCAGGAUCAGGGGUGGAAUUCUCGGGUGCCAA | 0.553
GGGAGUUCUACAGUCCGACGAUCAGCCCCGCCCCCUGGAGCUGGCCCGGAUGGUUUCUGUCCCUUUGUUAUCCGUUGUCUCUGAAGUGGACAGUAUCCUUUCCUGCCCCGCCAAGCAUGCUCAGUGCCUUUUGUGGAAUUCUCGGGUGCCAA | 5.3
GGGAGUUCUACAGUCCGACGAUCGAAGUGAGACCACUGUUGAAGUACCACAAAAGUUUGAAUGAACGAGUGAGUGUUCACUCUUUUGUCUGUGGAGUCUGCUGUGUGGCAGGAUCCCAGCCCUAGAGCUGCAGUGGAAUUCUCGGGUGCCAA | 0.5

Block 2
Target: CCNE2, cyclin fold, Cln2 fusion (human)
Technique: yeast growth competition, sequencing
Medium: yeast
Setting: weak parent motif
Baseline: not given
Direction: higher = stronger binding
Starting sequence: E2F8 docking peptide (human); FVPQRKLEVSTED; partner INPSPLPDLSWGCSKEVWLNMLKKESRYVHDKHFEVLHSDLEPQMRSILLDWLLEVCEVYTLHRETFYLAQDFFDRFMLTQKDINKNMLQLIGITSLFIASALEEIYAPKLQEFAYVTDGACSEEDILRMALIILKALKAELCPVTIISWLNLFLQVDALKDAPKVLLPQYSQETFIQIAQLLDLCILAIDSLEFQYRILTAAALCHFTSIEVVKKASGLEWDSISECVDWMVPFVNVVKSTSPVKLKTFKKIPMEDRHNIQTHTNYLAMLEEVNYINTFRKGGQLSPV
Change | normalised enrichment score
FVPQRKLEVSAED [T11A] | -0.377
FVPQRKLELSTED [V9L] | -0.209
FVPQRKLEFSTED [V9F] | 0.125
FVPQAKLEVSTED [R5A] | 0.107
FVPQRKLAVSTED [E8A] | -0.162
FVPQRKLEVATED [S10A] | 0.105
FVPQAKAEVSTED [R5A L7A] | -0.391
FAPQRKLEVSTED [V2A] | -0.0325
FVPQRKLEVSTAD [E12A] | -0.0779
FVPQRKLEASTED [V9A] | -0.397
FVPQKKLEVSTED [R5K] | 0.104

Block 3
Target: NFIL3, bZIP domain (human)
Technique: DHFR protein complementation
Medium: yeast
Setting: single substitutions, most at no-binding floor
Baseline: wild-type JUN-FOS pair
Direction: higher = stronger binding
Starting sequence: JUN, bZIP domain (human); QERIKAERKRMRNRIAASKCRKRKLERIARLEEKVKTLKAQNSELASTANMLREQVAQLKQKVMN; partner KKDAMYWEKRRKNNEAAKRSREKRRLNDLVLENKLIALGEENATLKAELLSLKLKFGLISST
Change | binding fitness
R53T | -1.55 natural log
Q41D | -1.49 natural log
L31I | -1.33 natural log
E54Q | -1.57 natural log
A57V | -1.26 natural log
I28A | -1.42 natural log
N42C | -1.47 natural log
K39E | -1.34 natural log
E44P | -1.53 natural log
L31M | -1.25 natural log
L52E | -1.55 natural log
Q41R | -1.53 natural log
L31P | -1.47 natural log
L31K | -1.52 natural log
S43I | -1.55 natural log
A49P | -1.48 natural log
S43G | -1.41 natural log
A29M | -1.32 natural log
L45N | -1.52 natural log
A40G | -1.39 natural log

Block 4
Target: ABI1, truncated, D143A, DHFR fusion (Arabidopsis thaliana, UniProt P49597)
Technique: DHFR PCA, dose-response
Medium: yeast
Setting: Hill fit, mean, not affinity
Together with: (+)-ABA, dose series
Direction: lower = more sensitive
Starting sequence: PYL1, truncated, DHFR fusion (Arabidopsis thaliana, UniProt Q8VZS8); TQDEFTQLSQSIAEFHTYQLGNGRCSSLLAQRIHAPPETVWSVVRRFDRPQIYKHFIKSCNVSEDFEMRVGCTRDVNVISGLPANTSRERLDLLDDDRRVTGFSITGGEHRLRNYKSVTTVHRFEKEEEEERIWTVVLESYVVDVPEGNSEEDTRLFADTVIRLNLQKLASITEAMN
Change | ABA EC50
K116T | 5.36 µM
E125L | 2.42 µM
I57C | 56.4 µM
A175L | 2.77 µM
L166F | 88.7 µM
D144Y | 252 µM
A175Q | 1.59 µM
I79A | 6.66 µM
E147L | 3.32 µM
S26R | 17 µM
G108T | 190 µM
L93G | 326 µM
V40I | 23.1 µM
C25E | 298 µM
P146G | 53.2 µM
E151T | 3.55 µM
F15Y | 2.01 µM
R163E | 48.5 µM
E131T | 3.33 µM
L156Y | 3.92 µM
I172F | 7.43 µM
C60M | 156 µM
Q2E | 0.877 µM
I12C | 75.3 µM
H34A | 3.17 µM

Block 5
Target: UBE2V2 UBC core domain (UniProt Q15819)
Technique: yeast two-hybrid
Medium: yeast
Setting: mostly zero background
Baseline: not given
Direction: higher = stronger interaction
B1: SYTL4 RING domain (UniProt Q96C24); chain RGSQHYSDRTCARCQESLGRLSPKTNTCRGCNHLVCRDCRIQESNGTWRCKVCAKEIELKKAT
B2: DZIP3 RING domain (UniProt Q86Y13); chain PDEEEEEEEPCVICHENLSPENLSVLPCAHKFHAQCIRPWLMQQGTCPTCRLHVLLPEEFP
B3: DTX2 RING domain (UniProt Q86UW9); chain EELKVPPDEDCIICMEKLSTASGYSDVTDSKAIGSLAVGHLTKCSHAFHLLCLLAMYCNGNKDGSLQCPSCKTIYGEKTGTQ
B4: RNF19A RING domain (UniProt Q9NV58); chain ISKQIGDFIECPLCLLRHSKDRFPDIMTCHHRSCVDCLRQYLRIEISESRVNISCPECTERFNPHDIR
B5: ZMIZ2 RING domain (UniProt Q8NF64); chain GTIPGTPGPNGEDGVEQTAIKVSLKCPITFRRIQLPARGHDCRHIQCFDLESYLQLNCERGTWRCPVCNKTALLEGLEVDQYMLGILIYIQNSDYEEITIDPTCSWK
B6: RFWD3 RING domain (UniProt Q6PCD5); chain ASMDEEEGDTCTICLEQWTNAGDHRLSALRCGHLFGYRCISTWLKGQVRKCPQCNKKARHSDIVV
Residues (chain): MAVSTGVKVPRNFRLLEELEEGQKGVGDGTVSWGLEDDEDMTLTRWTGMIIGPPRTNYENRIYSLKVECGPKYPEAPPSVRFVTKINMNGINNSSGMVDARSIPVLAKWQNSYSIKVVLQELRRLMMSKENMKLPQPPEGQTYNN
Molecule | lacZ reporter activity
B1 (SYTL4 RING domain) | 0
YQNEVDDDLVCHICLQPLLQPLDTPCGHTFCYKCLRNFLQEKDFCPLDRKRLHFKLCKK (LNX2 RING domain (UniProt Q8N448)) | 0
B2 (DZIP3 RING domain) | 0
B3 (DTX2 RING domain) | 0
GSRLQEINDVCAICYHEFTTSARITPCNHYFHALCLRKWLYIQDTCPMCHQKVYIEDDIK (RNF139 RING domain (UniProt Q8WU17)) | 0
B4 (RNF19A RING domain) | 0
KLRKLKEAMLCMVCCEEEINSTFCPCGHTVCCESCAAQLQSCPVCRSRVEHVQHVY (MYLIP RING domain (UniProt Q8WY64)) | 0
GSDDEEIPFKCFICRQSFQNPVVTKCRHYFCESCALQHFRTTPRCYVCDQQTNGVFNPA (RNF113A RING domain (UniProt O15541)) | 0
NLSELTPYILCSICKGYLIDATTITECLHTFCKSCIVRHFYYSNRCPKCNIVVHQTQPLY (PCGF6 RING domain (UniProt Q9BYE7)) | 0
FDGDVDPDLKCALCHKVLEDPLTTPCGHVFCAGCVLPWVVQEGSCPARCRGRLSAKELN (PDZRN3 RING domain (UniProt Q9UPQ7)) | 0
B5 (ZMIZ2 RING domain) | 0
B6 (RFWD3 RING domain) | 0

Block 6
Target: Histone acetyltransferase KAT6A, winged helix 1, GST fusion (KAT6A, Homo sapiens, UniProt Q92794, residues 1-85)
Technique: protein binding microarray
Molecule type: double-stranded DNA, one strand shown
Medium: in vitro
Tested at: not given
Setting: 8-mer, flanks averaged, mean of 2 arrays, mostly near background
Baseline: not given
Direction: higher = stronger binding
Residues (chain): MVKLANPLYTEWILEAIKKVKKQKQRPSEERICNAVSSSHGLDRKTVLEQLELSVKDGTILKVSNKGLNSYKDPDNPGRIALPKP
Sequence | E-score
AACGAGCG | 0.142
CCCATTCC | -0.242
CTATGTAA | -0.145
GAGTATAC | 0.0732
AGGAAGGA | -0.204
CGATTCGA | -0.13
CCCACCTC | -0.0988
CATGCCCG | 0.302
ACTGAAAG | 0.0726
AGGGATGC | -0.113
GCGTTCCC | 0.24
CATCGCCG | 0.382
AGAGTTGA | -0.257
GGGCACAC | -0.197
CAAAAGTG | -0.133
AATCAGGT | -0.126
GCGGTGTA | 0.189
ATACCCTA | -0.301
GAATAAGA | -0.227
ATTGGAGA | -0.147
CGCGAACG | 0.273
ATACCTTC | -0.046
CAGAAACG | -0.0285
CGAACCCA | -0.0576
CATAATCG | 0.0169
